# Measured values from different studies.
# Compare with care: the assays were run in different laboratories. ± marks the error that the study gave.
# UGT1A4: UDP-glucuronosyltransferase 1A4 (UGT1A4, Homo sapiens, UniProt P22310)
# UniProt P22310, sequence (whole entry, looked up): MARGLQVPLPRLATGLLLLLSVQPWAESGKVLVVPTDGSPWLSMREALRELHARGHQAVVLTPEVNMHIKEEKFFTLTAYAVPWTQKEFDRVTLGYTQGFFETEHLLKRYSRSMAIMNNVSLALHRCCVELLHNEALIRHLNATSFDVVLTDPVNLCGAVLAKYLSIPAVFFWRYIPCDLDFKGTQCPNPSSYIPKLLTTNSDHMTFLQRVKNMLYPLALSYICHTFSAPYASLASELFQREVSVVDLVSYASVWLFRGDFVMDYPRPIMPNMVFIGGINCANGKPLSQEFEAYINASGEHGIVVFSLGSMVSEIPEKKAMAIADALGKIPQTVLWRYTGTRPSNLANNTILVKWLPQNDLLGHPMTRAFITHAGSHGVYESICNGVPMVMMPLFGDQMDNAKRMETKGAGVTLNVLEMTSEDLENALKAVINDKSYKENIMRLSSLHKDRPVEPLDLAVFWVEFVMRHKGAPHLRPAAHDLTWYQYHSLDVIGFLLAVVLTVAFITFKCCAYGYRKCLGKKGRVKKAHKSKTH
# UniProt Q9BYT3, sequence (whole entry, looked up): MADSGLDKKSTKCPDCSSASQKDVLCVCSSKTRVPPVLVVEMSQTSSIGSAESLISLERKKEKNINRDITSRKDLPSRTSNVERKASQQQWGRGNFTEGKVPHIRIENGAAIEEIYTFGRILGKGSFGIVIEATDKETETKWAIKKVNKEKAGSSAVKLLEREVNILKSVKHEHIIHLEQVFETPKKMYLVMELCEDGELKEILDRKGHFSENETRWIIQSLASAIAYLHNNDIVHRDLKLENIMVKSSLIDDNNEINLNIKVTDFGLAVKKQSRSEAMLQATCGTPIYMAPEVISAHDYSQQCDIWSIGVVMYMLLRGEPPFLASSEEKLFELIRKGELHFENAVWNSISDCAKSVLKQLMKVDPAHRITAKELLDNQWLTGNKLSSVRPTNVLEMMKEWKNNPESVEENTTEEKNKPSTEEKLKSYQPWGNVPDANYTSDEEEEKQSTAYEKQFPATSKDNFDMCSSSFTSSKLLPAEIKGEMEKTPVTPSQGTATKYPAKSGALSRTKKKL
# UniProt P05164, sequence (whole entry, looked up): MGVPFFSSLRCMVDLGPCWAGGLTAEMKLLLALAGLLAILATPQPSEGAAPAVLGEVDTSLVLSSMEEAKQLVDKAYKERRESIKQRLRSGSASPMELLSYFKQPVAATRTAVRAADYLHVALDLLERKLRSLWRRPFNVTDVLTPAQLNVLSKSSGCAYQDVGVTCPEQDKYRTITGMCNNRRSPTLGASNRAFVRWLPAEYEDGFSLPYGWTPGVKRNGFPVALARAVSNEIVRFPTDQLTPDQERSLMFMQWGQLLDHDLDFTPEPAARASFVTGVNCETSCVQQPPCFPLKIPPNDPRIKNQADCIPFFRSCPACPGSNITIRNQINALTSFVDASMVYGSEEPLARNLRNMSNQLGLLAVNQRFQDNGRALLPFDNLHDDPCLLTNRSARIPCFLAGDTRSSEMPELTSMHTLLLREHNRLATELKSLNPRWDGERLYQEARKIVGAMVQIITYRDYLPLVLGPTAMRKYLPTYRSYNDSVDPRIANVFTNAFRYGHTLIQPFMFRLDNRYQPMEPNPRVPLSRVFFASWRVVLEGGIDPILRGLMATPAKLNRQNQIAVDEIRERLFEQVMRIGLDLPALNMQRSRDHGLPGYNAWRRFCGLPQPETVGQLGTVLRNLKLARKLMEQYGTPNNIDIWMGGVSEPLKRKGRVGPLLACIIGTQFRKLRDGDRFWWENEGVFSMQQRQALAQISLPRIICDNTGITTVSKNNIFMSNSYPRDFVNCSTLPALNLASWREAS
# UniProt P51957, sequence (whole entry, looked up): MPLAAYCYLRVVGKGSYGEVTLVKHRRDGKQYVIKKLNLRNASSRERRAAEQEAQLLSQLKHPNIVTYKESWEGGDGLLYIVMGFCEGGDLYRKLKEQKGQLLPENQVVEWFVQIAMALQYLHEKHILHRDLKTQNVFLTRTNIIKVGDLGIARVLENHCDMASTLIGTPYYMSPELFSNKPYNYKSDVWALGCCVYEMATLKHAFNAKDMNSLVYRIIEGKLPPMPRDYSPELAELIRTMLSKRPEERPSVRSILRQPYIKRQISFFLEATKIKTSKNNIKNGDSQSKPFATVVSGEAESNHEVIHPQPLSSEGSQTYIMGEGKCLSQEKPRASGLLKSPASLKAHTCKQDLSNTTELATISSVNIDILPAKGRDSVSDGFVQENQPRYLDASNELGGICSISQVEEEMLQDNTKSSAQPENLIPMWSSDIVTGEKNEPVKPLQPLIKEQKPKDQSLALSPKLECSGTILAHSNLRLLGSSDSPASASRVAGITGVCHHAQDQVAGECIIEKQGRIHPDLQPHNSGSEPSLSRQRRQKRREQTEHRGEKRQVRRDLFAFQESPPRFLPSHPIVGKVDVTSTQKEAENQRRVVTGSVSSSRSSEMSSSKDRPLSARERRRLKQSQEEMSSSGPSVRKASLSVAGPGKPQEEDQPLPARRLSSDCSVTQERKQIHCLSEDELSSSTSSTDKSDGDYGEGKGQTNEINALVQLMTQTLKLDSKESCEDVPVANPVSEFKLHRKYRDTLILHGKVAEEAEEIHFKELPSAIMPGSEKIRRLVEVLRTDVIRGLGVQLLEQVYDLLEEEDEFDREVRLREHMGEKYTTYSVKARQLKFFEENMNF
# UniProt P54764, sequence (whole entry, looked up): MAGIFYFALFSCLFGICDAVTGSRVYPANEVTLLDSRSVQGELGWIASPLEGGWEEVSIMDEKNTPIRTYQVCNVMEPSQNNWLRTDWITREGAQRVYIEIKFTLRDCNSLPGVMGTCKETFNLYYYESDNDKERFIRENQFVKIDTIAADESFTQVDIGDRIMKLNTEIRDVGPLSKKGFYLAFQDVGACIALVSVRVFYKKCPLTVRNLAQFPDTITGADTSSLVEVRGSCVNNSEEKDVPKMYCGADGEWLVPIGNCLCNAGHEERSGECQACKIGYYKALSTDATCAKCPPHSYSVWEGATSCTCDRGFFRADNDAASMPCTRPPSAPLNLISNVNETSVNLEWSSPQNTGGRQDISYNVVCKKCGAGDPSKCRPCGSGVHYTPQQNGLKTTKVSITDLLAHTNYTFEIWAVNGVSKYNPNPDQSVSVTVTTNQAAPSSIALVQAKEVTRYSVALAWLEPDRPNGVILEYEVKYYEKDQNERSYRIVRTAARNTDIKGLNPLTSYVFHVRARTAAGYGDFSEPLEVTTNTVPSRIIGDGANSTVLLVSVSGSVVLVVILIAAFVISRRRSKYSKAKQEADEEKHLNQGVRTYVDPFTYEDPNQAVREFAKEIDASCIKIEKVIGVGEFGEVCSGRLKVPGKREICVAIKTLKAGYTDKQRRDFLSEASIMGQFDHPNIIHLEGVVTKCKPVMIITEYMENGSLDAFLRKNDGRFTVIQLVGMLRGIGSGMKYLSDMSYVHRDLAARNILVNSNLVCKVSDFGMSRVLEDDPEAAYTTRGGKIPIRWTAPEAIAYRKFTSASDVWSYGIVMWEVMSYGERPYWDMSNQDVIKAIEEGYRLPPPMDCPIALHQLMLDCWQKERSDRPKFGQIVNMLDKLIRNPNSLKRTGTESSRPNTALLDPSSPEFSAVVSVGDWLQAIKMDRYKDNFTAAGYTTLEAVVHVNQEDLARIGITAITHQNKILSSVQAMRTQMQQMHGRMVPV
# UniProt P49137, sequence (whole entry, looked up): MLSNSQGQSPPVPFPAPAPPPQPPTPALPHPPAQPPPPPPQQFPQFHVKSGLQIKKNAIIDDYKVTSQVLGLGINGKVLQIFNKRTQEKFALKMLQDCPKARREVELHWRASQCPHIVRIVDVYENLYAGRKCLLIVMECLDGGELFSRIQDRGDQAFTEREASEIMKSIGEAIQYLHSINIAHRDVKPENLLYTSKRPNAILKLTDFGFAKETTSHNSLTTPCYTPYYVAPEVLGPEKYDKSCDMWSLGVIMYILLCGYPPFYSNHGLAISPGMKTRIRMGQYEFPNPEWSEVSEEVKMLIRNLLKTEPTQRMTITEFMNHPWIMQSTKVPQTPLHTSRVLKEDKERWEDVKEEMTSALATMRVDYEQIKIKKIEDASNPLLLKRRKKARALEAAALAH
# UniProt Q7KZI7, sequence (whole entry, looked up): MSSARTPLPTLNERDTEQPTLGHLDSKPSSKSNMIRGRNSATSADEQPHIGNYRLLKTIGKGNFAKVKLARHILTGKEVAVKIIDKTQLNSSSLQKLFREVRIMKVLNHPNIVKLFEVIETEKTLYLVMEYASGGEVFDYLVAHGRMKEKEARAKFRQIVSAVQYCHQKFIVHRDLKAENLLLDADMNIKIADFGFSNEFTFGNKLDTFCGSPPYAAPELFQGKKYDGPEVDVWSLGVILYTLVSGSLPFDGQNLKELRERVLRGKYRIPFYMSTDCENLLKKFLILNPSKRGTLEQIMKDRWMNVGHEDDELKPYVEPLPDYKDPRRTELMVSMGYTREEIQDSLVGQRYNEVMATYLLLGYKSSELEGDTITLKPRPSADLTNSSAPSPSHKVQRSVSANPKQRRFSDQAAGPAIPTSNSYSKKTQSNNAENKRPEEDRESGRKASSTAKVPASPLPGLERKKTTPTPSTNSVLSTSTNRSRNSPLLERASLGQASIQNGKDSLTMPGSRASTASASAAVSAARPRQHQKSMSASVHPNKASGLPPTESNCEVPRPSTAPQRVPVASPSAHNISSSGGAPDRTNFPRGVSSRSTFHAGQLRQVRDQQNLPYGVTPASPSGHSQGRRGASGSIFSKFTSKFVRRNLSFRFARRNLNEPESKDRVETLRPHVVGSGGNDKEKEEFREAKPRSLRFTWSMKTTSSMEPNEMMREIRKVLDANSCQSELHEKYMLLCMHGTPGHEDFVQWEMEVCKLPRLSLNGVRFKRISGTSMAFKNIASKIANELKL
Compound,tested on,test,system,conditions,how to read,endpoint,result
NC/C(=C\F)COc1cccc(Cn2c(=S)[nH]c(=O)c3[nH]cnc32)c1,"Myeloperoxidase (MPO, Homo sapiens, UniProt P05164)","LDL lipid peroxidation, inhibitor, cholesteryl ester hydroperoxide",,0.00023 µM,,remaining activity,94.4%
O=C1NC(=O)/C(=C/c2ccc(-c3ccc(F)cc3O)o2)S1,"MAPKAPK2 (Homo sapiens, UniProt P49137)",enzyme activity,,10 µM,,remaining activity,80%
COc1cc(F)ccc1-c1ncnc(Nc2cccc(C[S@](C)(=N)=O)c2)n1,"STK33 (Homo sapiens, UniProt Q9BYT3)",kinase activity,,"10 µM, with: 10 µM ATP",,remaining activity,93%
CC(C)n1c(/C=C/C(O)CC(O)CC(=O)O)c(-c2ccc(F)cc2)c2ccccc21 (stereo not shown),COS-7,,,"6 µM, 24 h, 0.1% DMSO, unit not given",relative to: vehicle control,necrotic cells,0.69 ± 0.11
Cc1cc(O)c2c(c1)C(=O)c1cccc(O)c1C2=O,HepaRG co-cultured with HK-2,MTT,,"266.67 µM, 48 h",relative to: untreated control,cell viability,35.8 ± 7.15%
CNCC(=O)O,"SLC6A9 (Homo sapiens, UniProt P48067, G373S)","glycine uptake, inhibitor",,"1000 µM, with: [3H]glycine",relative to: no inhibitor,remaining activity,94%
O=C(O)c1ccc(Nc2ncc3c(n2)-c2ccc(Cl)cc2C(c2c(F)cccc2F)=NC3)cc1,SAPK2a(h),kinase activity,,1 µM,,remaining activity,105%
C[C@@H]1CC[C@@]2(OC1)O[C@H]1C[C@H]3[C@@H]4CC[C@H]5C[C@@H](O)CC[C@]5(C)[C@H]4CC(=O)[C@]3(C)[C@H]1[C@@H]2C,UGT1A4,"glucuronidation, inhibitor",human liver microsomes,"1 µM, with: probe substrate 50 µM",relative to: no inhibitor,remaining activity,~67%
Cc1cc(Nc2cc(N3CCN(C)CC3)nc(Sc3ccc(NC(=O)C4CC4)cc3)n2)[nH]n1,"PIM2 (Homo sapiens, UniProt Q9P1W9)","kinase activity, KinaseProfiler",,"0.03 µM, species human",relative to: control,remaining activity,104%
CNc1ncc2c(/C=C/C(=O)N3CCC(OC)CC3)nn(Cc3cccc(C(F)(F)F)c3)c2n1,"MARK2 (Homo sapiens, UniProt Q7KZI7)","kinase activity, inhibitor",,1 µM,relative to: untreated control,remaining activity,92%
COCCOCc1ccc(-c2cc3onc(-c4ccccc4)c3c(=O)n2C)cc1,COS-7,WST-8,,"10 µM, 24 h, 0.1% DMSO, unit not given",relative to: vehicle control,metabolic activity,0.98 ± 0.04
COc1cc(Nc2ncc3c(n2)-c2ccc(Cl)cc2C(c2c(F)cccc2OC)=NC3)ccc1C(=O)O,RPS6KB1,kinase activity,,1 µM,,remaining activity,97%
COc1cc(-c2cncc3c2CN(C)Cc2cc(N4CCNCC4)ccc2-3)cc(OC)c1OC,"CAMK2A (Homo sapiens, UniProt Q9UQM7)",kinase activity,,"1 µM, human enzyme, with: ATP 10 µM",relative to: DMSO control,remaining activity,106%
COc1c(O)cc2c(c1O)C(=O)c1c(cc(C)c(O)c1OC)C2=O,HepaRG co-cultured with HK-2,MTT,,"66.67 µM, 48 h",relative to: untreated control,cell viability,67.3 ± 4.37%
C=CC(=O)N1CCC[C@@H](n2nc(-c3ccc(Oc4ccccc4)cc3)c3c(N)ncnc32)C1,"EPHA4 (Homo sapiens, UniProt P54764)",,,0.1 µM,,remaining activity,146%
COc1cc(N2CCN(C)CC2)ccc1Nc1nc(N)n(C(=S)NCc2c(Cl)cccc2Cl)n1,"EGFR (Homo sapiens, UniProt P00533, L858R/T790M)",enzyme activity,,10 µM,relative to: control,remaining activity,0.8%
O=C(NC1CCC1)c1ccc2nc(-c3cccc(NS(=O)(=O)NCCN4CCCCC4)c3)cn2c1,"NEK4 (Homo sapiens, UniProt P51957)",enzyme activity,,10 µM,,remaining activity,100%
O=c1cc(-c2ccc(O)c(-c3c(O)cc(O)c4c(=O)cc(-c5ccc(O)cc5)oc34)c2)oc2cc(O)cc(O)c12,UGT1A4,"glucuronidation, inhibitor",human liver microsomes,"10 µM, with: probe substrate 0.5 µM",relative to: no inhibitor,remaining activity,~20%
Cc1cc(NC(=O)c2cccc(NC(=O)/C=C/CN(C)C)c2)ccc1Nc1nccc(-c2cccnc2)n1,"Mitogen-activated protein kinase 8, phosphorylated (MAPK8, Homo sapiens, UniProt P45983)","enzyme activity after dialysis, inhibitor",,"10 µM, 5 days, unit not given",relative to: no inhibitor,remaining activity,0.0686

# A few entries again:
Compound,tested on,test,system,conditions,how to read,endpoint,result
O=c1cc(-c2ccc(O)c(-c3c(O)cc(O)c4c(=O)cc(-c5ccc(O)cc5)oc34)c2)oc2cc(O)cc(O)c12,UGT1A4,"glucuronidation, inhibitor",human liver microsomes,"10 µM, with: probe substrate 0.5 µM",relative to: no inhibitor,remaining activity,~20%
